# Published values of several laboratories.
# Every numbered part comes from another study and shows a few of its results, in no order. Substitutions count along the parent as printed.

# Block 1 — technique: universal PBM; molecule type: double-stranded DNA, one strand shown; medium: in vitro; tested at: 600 nM; direction: higher = stronger binding
# Target: Sal-like protein 4, full length isoform A (SALL4, Homo sapiens, UniProt Q9UJQ4, residues 1-1053)
# Sequence of UniProt Q9UJQ4 (whole entry, looked up): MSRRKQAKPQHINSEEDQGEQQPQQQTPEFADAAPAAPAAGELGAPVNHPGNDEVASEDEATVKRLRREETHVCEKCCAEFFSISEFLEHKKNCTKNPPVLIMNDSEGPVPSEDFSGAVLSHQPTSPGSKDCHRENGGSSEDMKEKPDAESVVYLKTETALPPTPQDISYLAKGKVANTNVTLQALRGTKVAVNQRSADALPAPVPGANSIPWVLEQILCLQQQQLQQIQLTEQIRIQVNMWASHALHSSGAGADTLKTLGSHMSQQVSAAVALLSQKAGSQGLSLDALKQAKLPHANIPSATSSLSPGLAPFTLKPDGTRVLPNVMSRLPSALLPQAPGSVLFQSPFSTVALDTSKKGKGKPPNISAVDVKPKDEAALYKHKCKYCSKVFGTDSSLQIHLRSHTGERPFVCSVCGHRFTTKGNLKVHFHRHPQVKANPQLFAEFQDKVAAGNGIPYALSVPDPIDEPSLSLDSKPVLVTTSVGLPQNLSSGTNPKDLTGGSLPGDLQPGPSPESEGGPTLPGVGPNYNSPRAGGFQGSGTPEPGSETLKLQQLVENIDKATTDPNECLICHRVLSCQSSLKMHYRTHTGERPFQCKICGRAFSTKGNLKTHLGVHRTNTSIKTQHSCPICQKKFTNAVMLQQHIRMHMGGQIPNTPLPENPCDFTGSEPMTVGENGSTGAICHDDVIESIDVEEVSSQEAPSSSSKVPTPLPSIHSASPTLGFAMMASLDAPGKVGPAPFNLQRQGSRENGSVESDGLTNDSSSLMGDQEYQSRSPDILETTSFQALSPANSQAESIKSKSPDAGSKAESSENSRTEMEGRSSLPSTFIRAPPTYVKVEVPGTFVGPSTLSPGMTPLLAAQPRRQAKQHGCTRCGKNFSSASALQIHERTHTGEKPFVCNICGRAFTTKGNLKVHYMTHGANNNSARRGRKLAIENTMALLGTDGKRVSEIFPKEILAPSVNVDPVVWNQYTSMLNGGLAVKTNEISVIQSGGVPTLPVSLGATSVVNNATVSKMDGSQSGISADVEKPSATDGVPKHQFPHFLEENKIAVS
# Notes: 8-mer, flanks averaged, mean of replicates
Oligonucleotide,E-score
CACCGATC,-0.233
AATTCATG,0.279
AAGTGGCA,-0.0608
GCTCAGCA,-0.0478
ACCACCAT,-0.116
ATCCGTGG,-0.208
AGTGTTCA,0.104
CTGGACAC,-0.264
ACGCGAGA,-0.0701
TGTCACAA,0.221
AGAGGTCA,-0.248
CGCAGTAA,0.11
CTACTGGC,-0.162
GCGACCAA,-0.193
CAAAATGC,0.141
ATCGACCC,-0.0896
CATTTCAC,0.105
GAAGACGC,-0.138

# Block 2 — technique: RNA Bind-n-Seq; molecule type: RNA; medium: in vitro; tested at: 365 nM; reference: no-protein control; direction: higher = stronger binding
# Target: RNA binding protein fox-1 homolog 2, RRM domain, GST-SBP tag (RBFOX2, Homo sapiens, UniProt O43251-10, residues 100-194)
# Notes: natural RNA segment, single round, ends assumed
# Constant ends, left off below: GGGAGUUCUACAGUCCGACGAUC … UGGAAUUCUCGGGUGCCAA
# Residues (chain): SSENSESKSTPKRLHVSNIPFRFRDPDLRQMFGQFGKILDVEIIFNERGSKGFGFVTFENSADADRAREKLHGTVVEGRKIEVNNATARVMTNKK
Oligonucleotide,RBNS enrichment (R)
GGUUUGAUGAACACGAUUAGGUACCCAGUGUGAUCCCACCCUCACCCCACCUCACCCAGAGCAAACCGUAGGACUGCUCCUAGAAGCAGCUCUGUUGACUUCUCUUGGAA,0.263
CUAUGGUGUGGAGUGGUGGCAGAAGACUCUGAAAGGGAAGAAAUUGGCAAAGCUGCAGCUUUUUCCUGCAUUUGGUCCCAUAAUCUUAAUAGAAACAAUUUCCUAUUACA,0.474
CACAAUGAAAGGUGGAACUGCACUUCUGUUGAGCUCUCAGUUCUGCGGAAUUUGGUACUCAUUACCGUAUUCGCCGUACUAAGUUGGUUUCUGUUAGUCUUAACAGUCUG,0.22
CCAAAUUUAAAAUGUGUGCCAUAUUCUGGUUCUUGAAAAUAAGAUUCCAGAGCUCUUUGAUCGCUUUUAAUAAACUGCAAGUUCAUUUUAAAUGAAGGGCCAGCAUAUAU,0.625
UUGGAUUGCGUUUUGCUUUUUAUUUCUUUAUAAAAAUAUGUCAAAAACAGUUUUUAAUUUUAGAAAUCUUAUACUUGAAAGAAACCUCAAUUAUCAGUGGCUUUAUGAAG,0.528
GUUUGCCUGUCCCCGGAGGCUGGAAGUAGAAGCCAGGCUACAUCUAAGUUGCCCUGACUGGCCUUCAGCUGGCCUUACCCACUUCUUCAGUUACCCUGAACAUGGGGAGU,0.216
CAAAGCAAUUUUUUUUAUUACUAAACAAGGUUUUUAUGAAUAAUAGCAUUGAUAUAUAUAUAUUAUAUAUCACCCUUUAGAUCUUGAUUUCUUGGUCAUUUCUCAACCUG,0.696
GGCAAGGUGAAAGACACUUGAAUUUCUCUUUUUAGCAAUCUUACUGUUUUCUGGUGCUGACUGCUACACCCAGGACUUUGCCCUCACUAAGCAAAUGUACCACCAAUGAG,0.253
UAAACAUAUGUAUUGUUAAUUAUAAAUAUCGAUAAGUAAUAGCAUAAUAGAUGAAGAGGUCUUAUUCAGAUGCUUCAUGUCCAUUUUACAUUACCCAUCUACUGUCGCAU,0.289
AGAGUGUUUCCUCCACUGUAUACUGUCACAGACUAUCAUCAUUGCUUUGUGGCUGGUUUUGUUUUUUUACUGUAUGUAACAAGUAGCUGAUUGUACUUGGAUAAAAAACA,1.56
UCCUGCAACGAAGGAGGUGGUGCCGACGUGCUGCUUCCCAUCACCAGCAGCUGCUCGACAAGGGGCGCAGGGUGGCUGUCUUUGUUCCAGCACUGUUCAGGCUGCCUGUC,0.466
CCAACUACCUUCACAGCACCCAGUGAUCAAGGUGAUGACGGUUGAGAACCUGAAAGUGCAUACUGAGUUGAGUGUUCAGGCUGCUGUCCUUGGUCUCUCUGCAGUUCUGG,0.756

# Block 3 — technique: protein binding microarray; molecule type: double-stranded DNA, one strand shown; medium: in vitro; tested at: not given; reference: not given; direction: higher = stronger binding
# Target: Histone acetyltransferase KAT6A, winged helix 1, GST fusion (KAT6A, Homo sapiens, UniProt Q92794, residues 1-85)
# Notes: 8-mer, flanks averaged, mean of 2 arrays, mostly near background
# Target sequence (chain): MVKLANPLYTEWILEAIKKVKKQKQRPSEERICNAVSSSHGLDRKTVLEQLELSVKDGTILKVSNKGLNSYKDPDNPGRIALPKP
Oligonucleotide,E-score
AAAGTGCA,-0.143
ATAGAATC,-0.131
CAGCCAGC,-0.199
AAGGTGGC,-0.18
ACTCAAAT,-0.114
GAACGCAA,-0.105
GCCGAGAC,0.154
ATGAGGGA,-0.148
CATTTGAG,-0.165
ACAGTTCG,0.117
AAGTTTAG,-0.214
CAATTACC,-0.0167
CATGCAGG,-0.199
AAGCAGAG,-0.373
CAGTCCAA,-0.259
GGGATAAA,-0.106

# Block 4 — target: CCNF, cyclin fold, Cln2 fusion (human); technique: yeast growth competition, sequencing; medium: yeast; notes: strong parent motif; reference: not given; direction: higher = stronger binding
# Parent: ORC1 docking peptide (human); PRARKRLELGNLG
Change,normalised enrichment score
G13L,3.54
G10A,2.85
K5R L9F,8.74
P1R,3.01
G10C,3.18
N11P,6
G10K,1.35
R6P,0.935
G13K,3.14
K5H,1.12
R6A,0.395
G10L,2.57
G13C,3.39
R2P,4.38
K5W,1.33
A3C,6.75
P1H,3.3
L7S,1.85
E8R,1.42
K5A,1.12
L9S,1.71
L7C,1.19
R4S,0.939
L9T,0.878
R2D,2.68

# Block 5 — target: UBE2J1 UBC core domain (UniProt Q9Y385); technique: yeast two-hybrid; medium: yeast; notes: mostly zero background; reference: not given; direction: higher = stronger interaction
# B1: BFAR RING domain (UniProt Q9NZS9); chain GPQISVSEFSCHCCYDILVNPTTLNCGHSFCRHCLALWWASSKKTECPECREKWEGFPKVS
# B2: RNF6 RING domain (UniProt Q9Y252); chain NSIDSELGKICSVCISDYVTGNKLRQLPCMHEFHIHCIDRWLSENCTCPICRQPVLGSNIAN
# B3: RUFY1 RING domain (UniProt Q96T51); chain QALKGHAWLKDDEATHCRQCEKEFSISRRKHHCRNCGHIFCNTCSSNELALPSYPKPVRVCDSCHTLLLQRCSSTAS
# B4: ZNRF4 RING domain (UniProt Q8WWF5); chain VRTFTWHNDLCAICLDEYEEGDQLKILPCSHTYHCKCIDPWFSQAPRRSCPVCKQSVAATEDSF
# B5: HLTF RING domain (UniProt Q14527); chain LILSSGSDEECAICLDSLTVPVITHCAHVFCKPCICQVIQNEQPHAKCPLCRNDIHEDNLLE
# B6: NFX1 RING domain (UniProt Q12986); chain IEQLTTEKYECMVCCELVRVTAPVWSCQSCYHVFHLNCIKKWARSPASQADGQSGWRCPACQNVSAHVPNTY
# B7: MKRN3 RING domain (UniProt Q13064); chain FAVQRGMDKVCGICMEVVYEKANPNDRRFGILSNCNHSFCIRCIRRWRSARQFENRIVKSCPQCRVTSELVIPSE
# B8: ZMYND11 RING domain (UniProt Q15326); chain DEIDWETENHDWYCFECHLPGEVLICDLCFRVYHSKCLSDEFRLRDSSSPWQCPVCRSIKKKNTNKQEM
# B9: TRIM41 RING domain (UniProt Q8WV44); chain PVQTLQEEAVCAICLDYFTDPVSIGCGHNFCRVCVTQLWGGEDEEDRDELDREEEEEDGEEE
# B10: MARCHF1 RING domain (UniProt Q8TCQ1); chain TAPRSQSRLSVCPSTQDICRICHCEGDEESPLITPCRCTGTLRFVHQSCLHQWIKSSDTRCCELCKYDFIMETKLKPLRKWE
# Residues (chain): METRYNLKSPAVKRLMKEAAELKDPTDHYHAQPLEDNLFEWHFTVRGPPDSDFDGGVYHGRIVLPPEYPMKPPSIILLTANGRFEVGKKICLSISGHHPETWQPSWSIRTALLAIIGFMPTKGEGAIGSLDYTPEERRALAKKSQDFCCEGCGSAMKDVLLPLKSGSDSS
Molecule,lacZ reporter activity
B1 (BFAR RING domain),0
B2 (RNF6 RING domain),0
B3 (RUFY1 RING domain),0
ASEEEFQFLRCQQCQAEAKCPKLLPCLHTLCSGCLEASGMQCPICQAPWPLGADTP (PML RING domain (UniProt P29590)),0
B4 (ZNRF4 RING domain),0
B5 (HLTF RING domain),0
B6 (NFX1 RING domain),0
LEALSSDFLACKICLEQLRAPKTLPCLHTYCQDCLAQLADGGRVRCPECRETVPVPPEGV (TRIM56 RING domain (UniProt Q9BRZ2)),0
B7 (MKRN3 RING domain),0
DDVLTKDAGECVICLEELLQGDTIARLPCLCIYHKSCIDSWFEVNRSCPEHPAD (ZNRF1 RING domain (UniProt Q8ND25)),0
B8 (ZMYND11 RING domain),0
B9 (TRIM41 RING domain),0
FAEQPSVKLCCQLCCSVFKDPVITTCGHTFCRRCALKSEKCPVDNVKLTVVVNNI (TRAF7 RING domain (UniProt Q6Q0C0)),0
LVKDFNPYITCYICKGYLIKPTTVTECLHTFCKTCIVQHFEDSNDCPRCGNQVHETNPLE (PCGF5 RING domain (UniProt Q86SE9)),0
B10 (MARCHF1 RING domain),0

# Block 6 — technique: DHFR PCA, deep sequencing; medium: yeast; added: (+)-ABA 0.032 µM; reference: wild-type fitted maximum; direction: higher = stronger binding
# Target: ABI1, truncated, D143A, DHFR fusion (Arabidopsis thaliana)
# Notes: methotrexate growth selection, single substitutions
# Parent: PYL1, truncated, DHFR fusion (Arabidopsis thaliana); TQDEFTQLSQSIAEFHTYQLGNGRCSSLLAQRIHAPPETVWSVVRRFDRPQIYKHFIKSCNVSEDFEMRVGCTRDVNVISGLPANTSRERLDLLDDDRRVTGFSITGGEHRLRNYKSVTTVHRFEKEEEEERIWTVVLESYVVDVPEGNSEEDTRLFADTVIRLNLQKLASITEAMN; partner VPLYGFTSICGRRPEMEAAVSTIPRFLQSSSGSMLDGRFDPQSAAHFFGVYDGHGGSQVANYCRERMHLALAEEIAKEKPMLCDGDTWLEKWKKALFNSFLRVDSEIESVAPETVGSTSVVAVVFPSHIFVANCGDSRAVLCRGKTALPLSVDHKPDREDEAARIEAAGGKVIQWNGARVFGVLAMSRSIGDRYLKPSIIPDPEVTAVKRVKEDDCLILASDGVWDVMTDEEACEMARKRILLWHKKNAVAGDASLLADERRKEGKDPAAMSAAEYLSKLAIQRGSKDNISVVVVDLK
Change,relative binding score [%]
V137G,1.03
R132M,35.3
S140I,-7.41
I12E,-4.17
E174K,-2.82
V136R,-6.3
V121A,5.86
A30P,-5.17
S80Y,57.4
T154A,3.41
S42K,15.7
T173C,59.7
D96G,1.16
I162C,9.51
I79Y,30.4

# Excerpt of the above (block 3):
Oligonucleotide,E-score
AAGGTGGC,-0.18
AAGCAGAG,-0.373
ACAGTTCG,0.117
CAGTCCAA,-0.259
GCCGAGAC,0.154
CATTTGAG,-0.165
GGGATAAA,-0.106
